Experimental data pooled from the literature.
Parts stem from different laboratories: compare values within a part only.

Sample 1
Target: RING finger protein unkempt homolog, zinc fingers 1-6, GST-SBP tag (UNK, Homo sapiens, UniProt Q9C0B0, residues 30-357)
UniProt Q9C0B0, sequence (30-357, looked up): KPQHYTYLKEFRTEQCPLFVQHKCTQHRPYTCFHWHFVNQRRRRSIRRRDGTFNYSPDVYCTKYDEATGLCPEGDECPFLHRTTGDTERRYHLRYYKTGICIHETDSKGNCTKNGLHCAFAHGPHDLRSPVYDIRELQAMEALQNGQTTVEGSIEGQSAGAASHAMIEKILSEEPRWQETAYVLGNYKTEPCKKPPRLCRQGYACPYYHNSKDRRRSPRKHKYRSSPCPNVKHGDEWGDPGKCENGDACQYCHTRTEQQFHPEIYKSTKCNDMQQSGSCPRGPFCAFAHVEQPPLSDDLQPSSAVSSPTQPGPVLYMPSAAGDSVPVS
Technique: RNA Bind-n-Seq
Form: RNA
Medium: in vitro
Tested at: not given
Notes: RNA with constant flanks, human and mouse sites, ends assumed
Reference: input RNA pool
Reading: higher = stronger binding
Measurement: bound/input enrichment
Shared flanks, not repeated: GGGAGUUCUACAGUCCGACGAUC … CAACAGAGGAUUGAGCAUCA
AACAGAUUGUCUUUAAGCAUUCCAAGCGAGAAUGCUGGGGUGAUCAUUGUUGCCCAUGUGCCUUCUGACUGAGCUUUAAUGCUGUUCCAUGUUACAUCUUUCCUUCACUCCAGAAUUGUU: 0.138 ratio
AUUUGGGGCAGUACCAGUCCAUACCAGCUGCGAUUUGUGAGUGGACCUGUGGUAAGAAGAAUAGAAAAGGCUCUCAGAGAUAAGGUUUUUUACAUGUGUAACAAUCCCAAGAUUUCCUAG: 0.888 ratio
UCUCCACAAUCAAUAGGUUUCCAAGCAACAAUCAGUGCUCCACACAUGCAUGCAUAUGCGCUAGAACUUCUAUUUGAUCAGUUGCAUGAAGGAGCUAAAGCUCUUGAUGUAGGAUCUGGA: 0.683 ratio
GGCAAAGGCAAAGGCGGCUCCGGAGAUUCGGCCGUGAAGCAGGUGCAGAUCGACGGCCUGGUAGUAUUAAAGAUAAUCAAACAUUAUCAAGAAGAAGGACAAGGCACUGAGGUUGUUCAG: 0.481 ratio
CUGAACAAAAUUACAAAGAAUCUAGGAUUUGGGAUGGGAAUUGAAUUCCGUGAAGGCUCUCUAGUAAUCAAUAGUAAAAAUCAGUACAAGCUAAAGAAAGGGAUGGUUUUUAGCAUCAAU: 61.5 ratio
UUUUUUGGAAAAUUGAACCGAACUUCUACUGAAUACAAGAUGAAAAUGUGGUUGCUGGUCAGUCAUCUUGUGAUAAUAUCUAUUACUACCUGUUUAGCAGAGUUUACAUGGUAUAGAAGA: 0.461 ratio
GGAGACAACAAACAAACCACUGUGUCGAACUCCCAGCAGGCUUACCAGGAAGCAUUUGAAAUUAGUAAGAAAGAAAUGCAGCCUACACACCCAAUUCGUCUUGGUCUGGCACUAAAUUUC: 0.327 ratio
GUACGUCAUUCAAGUGUUUAAUGGUAAAGGUGUAUUAUAAGGAUAGUGCUAGAAGCUUUCAUAGACUGUAAAGAGUUCCAUGGAGUAUUAAACCCAUAGUUGGAAAGGUCUGAGGGCCCA: 0.445 ratio
GAGCAGCGGCAGUUCUCACUACAGCGCCAGGACGAGUCCGGUUCGUGUUCGUCCGCGGAGAUCUCUCUCAUCUCGCUCGGCUGCGGGAAAUCGGGCUGAAGCGACUGAGUCCGCGAUGGA: 0.0805 ratio
UUCUUGGACUUUUACAUAUGGAGGUUUUCAACCAGCGAUUAGAGCAAGAAUAUAACGCUUCUGUCAUUUUGACAACCCCAACUGUUCCAUACAAAGCUGUUCUUUCCUCUGCAAAAUUAA: 0.0944 ratio
GAUGGCACAGCUUCUGGAUCUAUCUGUUGAUGAGUCCGAAGCCUUUCUCUCAAAUCUAGUAGUUAACAAGACCAUCUUUGCUAAAGUAGACAGAUUAGCAGGAAUUAUCAACUUCCAGAG: 1.68 ratio

Sample 2
Target: RNA binding protein fox-1 homolog 2, RRM domain, GST-SBP tag (RBFOX2, Homo sapiens, UniProt O43251-10, residues 100-194)
Technique: RNA Bind-n-Seq
Form: RNA
Medium: in vitro
Tested at: 365 nM
Notes: natural RNA segment, single round, ends assumed
Reference: no-protein control
Reading: higher = stronger binding
Measurement: RBNS enrichment (R)
Shared flanks, not repeated: GGGAGUUCUACAGUCCGACGAUC … UGGAAUUCUCGGGUGCCAA
Target sequence (chain): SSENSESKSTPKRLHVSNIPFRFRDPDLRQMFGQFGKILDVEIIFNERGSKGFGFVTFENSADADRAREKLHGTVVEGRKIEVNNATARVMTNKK
CUACCAGAGAGCAGAAUGCUUGUGGCACCCAUUUGAGGCACAGCCCUCAGGAUGCAGGGUGCUGGGUCUUCUGGUUUUGUUUGGGUUAAAACAGAACUUUCCCAUUAUCU: 6.87
AUUCUGAAAAAUUUUACACAUGUAUGGCAACACCUGAUCUAUCGGUUAUCCAACGCUUCAUUGUACCAGACAUUGUCCAGAAGUUUCAAAGACCCUUUGCAAACCCUGAA: 0.258
AAGGCGAUGCUACACUGUCCUGUUCCCGAGAUACCUCGCCCUGAACAGAGAUAUAUUUUGUACAAAAUGAACUGUUAAGUUGCCUUUGGCUAACAUCCAUAUGUAUAUAU: 0.261
UGUCUCACAGCCCUGGGGACACCUGCCCAGUGGGCCCCAGCCCUACAGGGACUGGGCAAAGAUGAUGUUUCCAGAUUACACUCCAGCCUGAGUCAGCACCCCUCCUAGCA: 1.7
CCCACCUUGUUUCCCAGCCUGCACCUUAGAAGCCGAAGGUGCUUUCAUCAGAACCCUAAAAUGGUCGUUGAAGGCGCCUGGGCCGCAGCCCAGCAGUAGUUGGAGAGGCA: 0.401
GCAGCAUGUGCUCACGGCAUCAUGUGGCAGUGGUGUGGGGUCUCUGCUCAGUGUGUUGAUACAGAAAAGCUGUUUUUCCUUGUUUGCAGAAGUUGACCAGACAAAGCAAA: 0.771
AGUGCAUUGGGCCUGAAUCUCUGAACACUGUAGACCCAUUAGAAGGAAGAUUGUUCUGACCGUCACAAAUUGUAGUGCCUGAAAACACUUAACACUGAUUGUCUAAGAGA: 0.478
CCCUGCUCCCCCUUUUUUCAAGUGCCUUAAUAGCAGGGCAAACUGUAGAGUCAGGAGGGCAGGCUAGAUGCUCAGCCACAAGACAGCCUUUACUGAAAAAGCUAUUGGAC: 0.297
ACCUCAGGUUCCAAAUUCAGUAAAUUUUGGAAACAGUACAGCUAUUUCUCAUCAAUUCUCUAUCAUGUUGAAGUCAAAUUUGGAUUUUCCACCAAAUUCUGAAUUUGUAG: 0.383
UAUCUCAGCUUGCUGAGGGGCAGGGAGAGGGUCUCUUCCUCUGGGCAGCACUAUCUAGAUAGGUAAGUGGGGGCGGGGAAGGGUGCAUAGCUGUUUUAGCCGAGGGACUC: 0.618
UUUUGUAAUUUUCAAUUCUAUUGUAAAAGAAACUUAAGUCUCCAACUUGCUGUUUCCAAAAAGAAGGUGCAAUAUCAUAUACAUCAUUAGCAAUAUUAGCAUUUCAAUCA: 0.394
CCUUUGCAGUGAAAAACUUUUUGCUUCAUAUAGUUAAUUAUAUUCAUAUUGAAUGUAUUAACAGAUAGCAGUGCAAAAGCAUUCUUCCCAAGAGAAGAGUGUACCAUGCA: 0.347

Sample 3
Target: Ras GTPase-activating protein-binding protein 1, C-terminal RGG region (G3BP1, Homo sapiens, UniProt Q13283)
UniProt Q13283, sequence (whole entry, looked up): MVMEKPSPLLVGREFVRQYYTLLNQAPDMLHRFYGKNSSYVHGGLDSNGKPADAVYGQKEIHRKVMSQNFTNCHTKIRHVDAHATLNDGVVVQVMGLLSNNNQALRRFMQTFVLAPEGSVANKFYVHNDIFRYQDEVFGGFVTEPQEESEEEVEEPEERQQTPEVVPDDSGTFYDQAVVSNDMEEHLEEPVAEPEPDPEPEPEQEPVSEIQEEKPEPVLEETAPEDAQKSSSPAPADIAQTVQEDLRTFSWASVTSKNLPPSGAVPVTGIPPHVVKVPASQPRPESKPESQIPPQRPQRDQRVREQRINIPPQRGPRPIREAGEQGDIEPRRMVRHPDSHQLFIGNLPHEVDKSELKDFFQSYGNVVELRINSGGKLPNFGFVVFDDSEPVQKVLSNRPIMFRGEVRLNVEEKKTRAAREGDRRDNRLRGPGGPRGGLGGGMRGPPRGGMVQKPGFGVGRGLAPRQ
Technique: RNA Bind-n-Seq
Form: RNA
Medium: in vitro
Tested at: 1 µM
Notes: whole 134-nt RNA, ends assumed
With: 150 mM KCl
Reference: input library
Reading: higher = stronger binding
Measurement: log2 enrichment
Shared flanks, not repeated: GGGAGUUCUACAGUCCGACGAUC … UGGAAUUCUCGGGUGUCAAGG
CCUGUGCUACACAUCGUAUGUACCGAAUCGGGGAAAAAGGGGAAAAAAAGGGGUUUGGGGAAAGUAUUAUGUUACGCCGUUCGGAUCUGC: 0.642
UGGGAGGUGGAUUUUGUUUAUUUUUUUAGCUCAUUUCCAGGGGUGGGAAUUUUUUUUUAAUAUGUGUCAUGAAUAAAGUGGUUUUUGAAA: 3.12
UGGCCCGCCGUCCUGAGGAAGCUGAGGUUCACUGCGGUGCCCAAGAACCACCAGGCGGUCCGGAACCCGUGAGCGGCUGCCAGGGGCUCU: -0.108
CCUGUGCUACACAUCGUAUGUACCGAAUCGGCCCCCCCGGGGCCCCCCCGGCCCCCCCGGAAAGUAUUAUGUUACGCCGUUCGGAUCUGC: -1.46
CAAGUCCUGUGCUACACAUCGUAUGUACCGAAUCGGAAAAAGGUUUGGAAAAAGGAAAGUAUUAUGUUACGCCGUUCGGAUCUGCACUUC: -1.89
CCUGUGCUACACAUCGUAUGUACCGAAUCGGUUUUUUUGGGUUUUUUUGGGUUUUUUUGGAAAGUAUUAUGUUACGCCGUUCGGAUCUGC: -1.24
AGUCCUGUGCUACACAUCGUAUGUACCGAAUCGGGUUUGGGAAAGGGUUUUUUUGGGAAAGUAUUAUGUUACGCCGUUCGGAUCUGCACU: 0.968
CACAGUCAACACGCACCCACACAGACACAGAGGGAAGGGGUUGGGAUGGGGACAGGGUGCACAGCAGGGCGGGGUAGGACCCCAGCCCCU: -0.234
AAGUCCUGUGCUACACAUCGUAUGUACCGAAUCGGAAAGGUUUUUUUGGAAAAAGGAAAGUAUUAUGUUACGCCGUUCGGAUCUGCACUU: -2.31
GCAGGAAGUAAAAACAAAUGGAAAUGCUUCGGAUAGUGGCAGGGCUGGGGGUUGCUAAGGAAAGGGUGGGAUGGGAGUGGGUAAAGAGUU: 1.8
CCUGUGCUACACAUCGUAUGUACCGAAUCGUGUGUGUGUGUGUGUGUGUGUGUGUGUGUGUAAAGUAUUAUGUUACGCCGUUCGGAUCUG: 1.51
CACAGACAACACGCACCCACACAGACACAGAGGGAAGGGGUUGGGAUAAAGACAGGGUGCACAGCAGGGCGGGGUAGGACCCCAGCCCCU: 0.136
GUCCUGUGCUACACAUCGUAUGUACCGAAUCGGGAGGGUUUUUUUGGGUUUUUUUGGGAAAGUAUUAUGUUACGCCGUUCGGAUCUGCAC: -0.445
UCAAGUCCUGUGCUACACAUCGUAUGUACCGAAUCGGAAAGGGAAAGGAAAGGGGAAAGUAUUAUGUUACGCCGUUCGGAUCUGCACUUC: -1.39

Sample 4
Target: Interferon regulatory factor 5, full length, phosphomimetic (IRF5, Homo sapiens, UniProt Q13568-2, residues 1-514, S451D/S453D/S456D/S462D)
Technique: protein-binding microarray
Form: double-stranded DNA, one strand shown
Medium: in vitro
Tested at: 940 nM top
Notes: 60-bp whole probe
With: salmon DNA 0.4 mg/ml
Reference: random background probes
Reading: higher = stronger binding
Measurement: fitted relative affinity
Shared flanks, not repeated: GCCTAGCAC … GTCTTGATTCGCTTGACGCTGCTG
TCAACACTGGTTTTTACACTGTGCTAG: -0.0134 z-score
GACGGTATCGGCTTTCGGGACGTGCTA: 4.9 z-score
CAACTTTTTTTAATTGAGAAGTGCTAG: 0.162 z-score
TTAGAACTGAGACCGGATTAGTGCTAG: -0.508 z-score
GACGATTTCAGTTCCCAGACGTGCTAG: 0.72 z-score
TTAGGTTTCCTTTACCTTTAGTGCTAG: 2.04 z-score
TTAGAACTGGAGTATCGATTAGTGCTA: 2.8 z-score
GACGGTATCGGTTTTCGGGACGTGCTA: 8.21 z-score
TCATCTCTGAAGACTCTCACTGTGCTA: 1.19 z-score
GTAGGACTGGACTTTCGGTTAGTGCTA: 2.32 z-score
TCAAAAATGAATATTAGACTGTGCTAG: -0.471 z-score
TCAATTCTAGCCTATAGAACTGTGCTA: -0.123 z-score
TTAGGTCTCGGTCTTGGTTAGTGCTAG: 4.16 z-score
TCATGTTTCTGTGTCACACTGTGCTAG: 1.87 z-score
TCAGCTTTTTTTTTTTTACTGTGCTAG: 1.23 z-score
TCATCCATGCTCTGTCGCACTGTGCTA: 0.0415 z-score
TTAGATCTCAGACTGGATTAGTGCTAG: -0.122 z-score
GACGGTTCCGGTTTCGGCACGTGCTAG: 6.18 z-score
TCATCTAACCTCTCTAATACTGTGCTA: 1.01 z-score
TCATTTTACTTTCTATCACTGTGCTAG: 3.12 z-score
GACGGTATCAGTATCGAGACGTGCTAG: 4.12 z-score
TTAGATCTCACTTTCGATTAGTGCTAG: 5.03 z-score

Repeated from above (sample 4):
TCATCCATGCTCTGTCGCACTGTGCTA: 0.0415 z-score
TCATCTCTGAAGACTCTCACTGTGCTA: 1.19 z-score
TTAGGTTTCCTTTACCTTTAGTGCTAG: 2.04 z-score
TTAGAACTGAGACCGGATTAGTGCTAG: -0.508 z-score
TTAGAACTGGAGTATCGATTAGTGCTA: 2.8 z-score
TTAGATCTCAGACTGGATTAGTGCTAG: -0.122 z-score
CAACTTTTTTTAATTGAGAAGTGCTAG: 0.162 z-score
